Results of several laboratories.
Each numbered part is a random draw from the data of one study; scales do not carry over between parts. Positions count from the first letter of the parent shown.

Block 1
Target: Histone acetyltransferase KAT6A, winged helix 2, GST fusion (KAT6A, Homo sapiens, UniProt Q92794, residues 85-181)
Technique: protein binding microarray
Molecule type: double-stranded DNA, one strand shown
Medium: in vitro
Tested at: not given
Setting: 8-mer, flanks averaged, mean of 2 arrays, mostly near background
Relative to: not given
Direction: higher = stronger binding
Target sequence (chain): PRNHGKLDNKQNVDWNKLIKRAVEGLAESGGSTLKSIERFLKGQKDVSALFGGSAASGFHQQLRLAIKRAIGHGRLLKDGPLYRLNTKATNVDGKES
With `CTCACTTC` the E-score was -0.0613.
For `CGCGCTGA`, the E-score was -0.0907.
`AGCTGACG` has an E-score of 0.07.
For `ACGGCAGA`, the E-score was 0.169.
`CAGTTTGC` gave an E-score of 0.0447.
`ATGAGGGG` gave an E-score of -0.0519.
`AGGTTCTC` gave an E-score of -0.0404.
The E-score of `CGATAACC` is reported as -0.137.
The E-score of `AAGGCGCG` is reported as -0.0212.
`ATGTGGAG` gave an E-score of -0.0388.
The E-score of `CCGGTTCA` is reported as 0.0104.
`ATCTCGCG` gave an E-score of 0.134.
With `GTCTGCGA` the E-score was 0.059.
`AAGGAATT` has an E-score of -0.137.
`AGAACGGC` gave an E-score of 0.0529.
`TGCGTGAA` gave an E-score of 0.132.
The E-score of `ATTGAACG` is reported as -0.046.
`CCCGCTTA` has an E-score of 0.087.

Block 2
Target: Ras GTPase-activating protein-binding protein 1, full length (G3BP1, Homo sapiens, UniProt Q13283)
UniProt Q13283, sequence (whole entry, looked up): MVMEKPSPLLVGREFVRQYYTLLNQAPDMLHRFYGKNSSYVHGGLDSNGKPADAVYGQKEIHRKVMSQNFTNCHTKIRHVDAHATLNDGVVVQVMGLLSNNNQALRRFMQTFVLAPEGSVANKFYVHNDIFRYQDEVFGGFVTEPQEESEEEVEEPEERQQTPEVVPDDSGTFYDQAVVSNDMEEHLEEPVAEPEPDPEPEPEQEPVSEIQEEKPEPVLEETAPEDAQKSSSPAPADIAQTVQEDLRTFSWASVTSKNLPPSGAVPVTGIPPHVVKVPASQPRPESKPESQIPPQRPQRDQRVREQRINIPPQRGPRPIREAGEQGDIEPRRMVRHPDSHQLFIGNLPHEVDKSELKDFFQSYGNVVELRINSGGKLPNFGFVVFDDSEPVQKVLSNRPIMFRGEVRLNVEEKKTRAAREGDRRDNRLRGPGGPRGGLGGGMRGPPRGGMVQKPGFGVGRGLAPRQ
Technique: RNA Bind-n-Seq
Molecule type: RNA
Medium: in vitro
Tested at: 200 nM
Setting: whole 134-nt RNA, ends assumed
Added: 150 mM KCl
Relative to: input library
Direction: higher = stronger binding
The log2 enrichment of `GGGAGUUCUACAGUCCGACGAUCGUCCUGUGCUACACAUCGUAUGUACCGAAUCGGGGAAAGGGGAAAAAAAGGGGAGGGGAAAGUAUUAUGUUACGCCGUUCGGAUCUGCACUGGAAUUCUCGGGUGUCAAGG` is reported as 0.491.
`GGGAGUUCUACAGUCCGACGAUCAGUCCUGUGCUACACAUCGUAUGUACCGAAUCGGGUGGGAAAAAAAGGGUUUUUGGGAAAGUAUUAUGUUACGCCGUUCGGAUCUGCACUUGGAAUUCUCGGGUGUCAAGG` gave a log2 enrichment of -0.212.
`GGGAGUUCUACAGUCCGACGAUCUAACUUUAGAGGAGGAUCUGAUGGAGAUGGCAGUGGACGUGGAUUUGGGGAUGGCUAUAAUGGGUAUGGAGGAGGACCUGGAGGUGGCAAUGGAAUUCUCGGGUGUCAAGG` gave a log2 enrichment of 0.544.
With `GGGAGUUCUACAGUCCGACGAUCUGGCCCUGGUGGCAUGCGGGGAGGAAAAGGUGGCCUCAUGGAUCGUGGUGGUCCCGGUGGAAUGUUCAGAGGUGGCCGUGGUGGAGACAGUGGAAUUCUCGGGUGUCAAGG` the log2 enrichment was 0.121.
The log2 enrichment of `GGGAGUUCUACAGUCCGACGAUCUGGCCCUGGUGGCAUGCGGGGAGGAAGAGAUGGCCUCAUGGAUCGUGGUGGUCCCGGUGGAAUGUUCAGAGGUGGCCGUGGUGGAGACAGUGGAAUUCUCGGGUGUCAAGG` is reported as 0.135.
With `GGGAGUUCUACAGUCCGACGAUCUAACUUUAGAGGAGGAUCUGAUGGAUAUGGCAGUGGACCUGGAUUUGGGGAUGGCUAUAAUGGGUAUGGAGGAGGACCUGGAGGUGGCAAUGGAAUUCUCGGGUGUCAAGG` the log2 enrichment was 0.12.
`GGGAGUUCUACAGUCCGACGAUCGCAGGAAGUAAAAACAAAUGGAAAUGCUUCGGAUAGUGGCAGGGGUCGGGGUUGCUAAGGAAAGGGUGGGAUGGGAGUGGGUAAAGAGUUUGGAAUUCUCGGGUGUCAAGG` gave a log2 enrichment of 1.13.
For `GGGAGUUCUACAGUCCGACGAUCCCUCAAGUCCUGUGCUACACAUCGUAUGUACCGAAUCGGAGGUUUUUGGUGGAAAGUAUUAUGUUACGCCGUUCGGAUCUGCACUUCCAGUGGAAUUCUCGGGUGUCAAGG`, the log2 enrichment was -0.138.
`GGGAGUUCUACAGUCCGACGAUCCUCAAGUCCUGUGCUACACAUCGUAUGUACCGAAUCGGAAGGAAGGGGAAGGGGAAAGUAUUAUGUUACGCCGUUCGGAUCUGCACUUCCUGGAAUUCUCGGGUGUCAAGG` gave a log2 enrichment of -0.0125.
With `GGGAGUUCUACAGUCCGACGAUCGUCCUGUGCUACACAUCGUAUGUACCGAAUCGGAAAAAGGGGAAAAAGGAAAAAGGGGAAAGUAUUAUGUUACGCCGUUCGGAUCUGCACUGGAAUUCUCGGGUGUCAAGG` the log2 enrichment was -0.521.

Block 3
Target: RNA binding protein fox-1 homolog 2, RRM domain, GST-SBP tag (RBFOX2, Homo sapiens, UniProt O43251-10, residues 100-194)
Technique: RNA Bind-n-Seq
Molecule type: RNA
Medium: in vitro
Tested at: 365 nM
Setting: natural RNA segment, single round, ends assumed
Relative to: no-protein control
Direction: higher = stronger binding
Residues (chain): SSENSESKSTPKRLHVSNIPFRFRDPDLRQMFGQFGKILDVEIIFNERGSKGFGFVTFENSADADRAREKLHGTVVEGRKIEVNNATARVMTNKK
`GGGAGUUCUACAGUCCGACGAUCAGACUUUGCAAGGCCUAAUGCCAAAGGACACAAGGCCUGUGUGGUGUCUGCCACACUCAGCAGGCCCUGUAGUGGUUCUCAUUUUGGCAUCUGGCUGGCUGCCUGCCUUAUGGAAUUCUCGGGUGCCAA`: “RBNS enrichment (R)” 0.299.
For `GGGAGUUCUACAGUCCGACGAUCUCUACGUGUAUAGUUCUCCAUGCUCACUAACUCUCCUUCUCUGGGAAGCAGAUGUACAUACUACAUACAUGUCACAUACUACAUACAUGUCAUGUACUACACACAUGUCAUGGAAUUCUCGGGUGCCAA`, “RBNS enrichment (R)” read 0.353.
For `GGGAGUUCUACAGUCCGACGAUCUUCUCACCACAACAAAAGCAACUAAUUGGAAACUAGAUGUGUUCAAUAAUAGAUUUCCUCUUUUUUGGCAUGCUUUUUAGAUUUUUUUUCAUUUUGUAAAAUCUCAGUUAUGGAAUUCUCGGGUGCCAA`, “RBNS enrichment (R)” read 2.28.
Under “RBNS enrichment (R)”, `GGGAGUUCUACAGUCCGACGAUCAAUCAUAACUCAGGGGCUUUGAACAGAGCUGUCUCUGUUUCAAUUGGCAUCCUUGCUCAUCCAUUCCUGUCUACCUCCCUUGUUAGUCUAGAUUUCUGGAGUUAUGUUCCUGGAAUUCUCGGGUGCCAA` is recorded as 0.311.
For `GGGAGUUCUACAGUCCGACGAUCGCCCCUGGAAAUUCGUGUGGCCUGUGAAGUGGUGUAUUGUAGUUUGAAUUUGAGACCUAUUGUAAGCAUGAUCCCUACCUACAACCCUAUUUUUACAUACCCAAUUCCAGUGGAAUUCUCGGGUGCCAA`, “RBNS enrichment (R)” read 5.9.
For `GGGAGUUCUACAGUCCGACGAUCCCCCCCCACCUCAGCCUCCCAAAGUGCUGGGAUUACAGGCGUGAGGCAUCACACCUGCCUCUGUUGGCUUUUUAGUUAGGAAGGAUCCAGCUAGGCCCGUGUGGUUAGAUUGGAAUUCUCGGGUGCCAA`, “RBNS enrichment (R)” read 0.269.
Under “RBNS enrichment (R)”, `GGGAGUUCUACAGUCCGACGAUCUACUUAUUUAUCCUAGUAUUCCUAACCUGUCAGAAUAAUAAAUAUUGGAACCAAGACAUGGUAAACAUGUGUUGUGCUGGUUUCUGUUCAUUUAAAUCUGUCGGUUGCUGUGGAAUUCUCGGGUGCCAA` is recorded as 0.46.
Under “RBNS enrichment (R)”, `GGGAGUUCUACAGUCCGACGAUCGUAGUCUCCUGGGUGUGUUUGGCUUGGCCUUGGCAUGGGCGCAGGCCCAGUGACAAAGACUCCUCUGGGCCUGGGGUGCAUCCUCCUCAGCCCCCAGGCCAGGUGAGGUCUGGAAUUCUCGGGUGCCAA` is recorded as 1.47.
`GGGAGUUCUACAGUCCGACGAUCUGUACCCCACCACCCCAUUACCACAGCUGCCUUUGUGUGUUUGUGUCAAUAAAAAGCCAAACCCUGGUCCUGCUUGUUGCCUCUGAGAGUGGAGGGAAGGUGAGCUCCUGUGGAAUUCUCGGGUGCCAA`: “RBNS enrichment (R)” 0.363.
For `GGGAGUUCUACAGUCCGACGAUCGGCUUUGGGUGCACUGUGAAGUUUCACAGGCAUCAAAACCCUGAUGGAGCUAUCCCCUCCUCCCUCUUUUCUUUGCUUCCAGGGAUAUCCUUGCCUACCUCUUUCUAUCUUGGAAUUCUCGGGUGCCAA`, “RBNS enrichment (R)” read 0.558.
Under “RBNS enrichment (R)”, `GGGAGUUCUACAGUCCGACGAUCCUCUGCAAGUGGAAUGUUACCCUGUGGGUGGCUGGGUCCAACAGGGUCCCUCCUGUCCCCCCUCUUCAUCCCUUGACAAAUGGGCACCAGGCUUCUGCUCUCCUCAAAGCUGGAAUUCUCGGGUGCCAA` is recorded as 0.639.
For `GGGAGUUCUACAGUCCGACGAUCAAAUGUAUCUUUUGGUUGUUUGAUUUUUCUUUCUUUCUUUGUAAAUAGUUCUGAGUUCUGUCAAAUGCCGUGAAAGUAUUUGCUAUAAUAAAGAAAAUUCUUGUGACUUUUGGAAUUCUCGGGUGCCAA`, “RBNS enrichment (R)” read 0.431.

Block 4
Target: CCND2, cyclin fold, Cln2 fusion (human)
Technique: yeast growth competition, sequencing
Medium: yeast
Setting: weak parent motif
Relative to: not given
Direction: higher = stronger binding
Parent: CDKN1C docking peptide (human); TSACRSLFGPVDH
Under “normalised enrichment score”, `R5K` is recorded as 0.195.
Under “normalised enrichment score”, `G9A` is recorded as 0.342.
Under “normalised enrichment score”, `S2A` is recorded as 0.369.
For `R5A L7A`, “normalised enrichment score” read -0.122.
`F8A` — result for “normalised enrichment score”: 0.235.
Under “normalised enrichment score”, `P10A` is recorded as 0.275.
`R5K F8L` — result for “normalised enrichment score”: -0.0539.
For `D12A`, “normalised enrichment score” read -0.0109.
Under “normalised enrichment score”, `R5A` is recorded as -0.0303.

Repeated from above (block 3):
For `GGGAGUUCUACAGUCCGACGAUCGCCCCUGGAAAUUCGUGUGGCCUGUGAAGUGGUGUAUUGUAGUUUGAAUUUGAGACCUAUUGUAAGCAUGAUCCCUACCUACAACCCUAUUUUUACAUACCCAAUUCCAGUGGAAUUCUCGGGUGCCAA`, “RBNS enrichment (R)” read 5.9.
For `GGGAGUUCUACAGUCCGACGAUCCCCCCCCACCUCAGCCUCCCAAAGUGCUGGGAUUACAGGCGUGAGGCAUCACACCUGCCUCUGUUGGCUUUUUAGUUAGGAAGGAUCCAGCUAGGCCCGUGUGGUUAGAUUGGAAUUCUCGGGUGCCAA`, “RBNS enrichment (R)” read 0.269.
Under “RBNS enrichment (R)”, `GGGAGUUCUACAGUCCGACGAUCUACUUAUUUAUCCUAGUAUUCCUAACCUGUCAGAAUAAUAAAUAUUGGAACCAAGACAUGGUAAACAUGUGUUGUGCUGGUUUCUGUUCAUUUAAAUCUGUCGGUUGCUGUGGAAUUCUCGGGUGCCAA` is recorded as 0.46.
Under “RBNS enrichment (R)”, `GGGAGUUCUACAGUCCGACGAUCGUAGUCUCCUGGGUGUGUUUGGCUUGGCCUUGGCAUGGGCGCAGGCCCAGUGACAAAGACUCCUCUGGGCCUGGGGUGCAUCCUCCUCAGCCCCCAGGCCAGGUGAGGUCUGGAAUUCUCGGGUGCCAA` is recorded as 1.47.
`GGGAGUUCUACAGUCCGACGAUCUGUACCCCACCACCCCAUUACCACAGCUGCCUUUGUGUGUUUGUGUCAAUAAAAAGCCAAACCCUGGUCCUGCUUGUUGCCUCUGAGAGUGGAGGGAAGGUGAGCUCCUGUGGAAUUCUCGGGUGCCAA`: “RBNS enrichment (R)” 0.363.
For `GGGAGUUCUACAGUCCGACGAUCGGCUUUGGGUGCACUGUGAAGUUUCACAGGCAUCAAAACCCUGAUGGAGCUAUCCCCUCCUCCCUCUUUUCUUUGCUUCCAGGGAUAUCCUUGCCUACCUCUUUCUAUCUUGGAAUUCUCGGGUGCCAA`, “RBNS enrichment (R)” read 0.558.
Under “RBNS enrichment (R)”, `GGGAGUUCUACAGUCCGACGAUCCUCUGCAAGUGGAAUGUUACCCUGUGGGUGGCUGGGUCCAACAGGGUCCCUCCUGUCCCCCCUCUUCAUCCCUUGACAAAUGGGCACCAGGCUUCUGCUCUCCUCAAAGCUGGAAUUCUCGGGUGCCAA` is recorded as 0.639.
